Measurements pooled from the literature.
Every numbered part comes from another study and shows a few of its results, in no order. Changes are numbered by the printed parent chain.
Sequence of UniProt Q9UBX1 (whole entry, looked up): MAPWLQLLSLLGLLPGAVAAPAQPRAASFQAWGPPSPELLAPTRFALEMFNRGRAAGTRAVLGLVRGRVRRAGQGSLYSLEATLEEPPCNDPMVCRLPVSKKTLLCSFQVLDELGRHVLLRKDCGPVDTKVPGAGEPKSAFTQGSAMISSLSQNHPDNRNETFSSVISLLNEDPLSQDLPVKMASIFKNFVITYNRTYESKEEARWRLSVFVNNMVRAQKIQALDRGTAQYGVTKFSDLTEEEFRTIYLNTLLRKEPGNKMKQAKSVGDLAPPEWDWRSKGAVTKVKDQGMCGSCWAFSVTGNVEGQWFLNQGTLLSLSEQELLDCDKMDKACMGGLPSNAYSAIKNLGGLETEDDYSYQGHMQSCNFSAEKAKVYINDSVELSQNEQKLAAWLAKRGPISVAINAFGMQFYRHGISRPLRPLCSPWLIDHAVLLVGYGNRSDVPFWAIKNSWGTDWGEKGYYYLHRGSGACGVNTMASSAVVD

Set 1 — target: UBE2D4 UBC core domain (UniProt Q9Y2X8); method: yeast two-hybrid; sample: yeast; setting: mostly zero background; relative to: not given; direction: higher = stronger interaction
Sequence of UniProt Q9Y2X8 (whole entry, looked up): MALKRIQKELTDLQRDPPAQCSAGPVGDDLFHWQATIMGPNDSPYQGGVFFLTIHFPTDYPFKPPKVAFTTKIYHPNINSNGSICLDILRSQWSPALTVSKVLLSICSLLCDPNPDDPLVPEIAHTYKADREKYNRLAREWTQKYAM
B1: TRIM31 RING domain (UniProt Q9BZY9); chain FVNKLQEEVICPICLDILQKPVTIDCGHNFCLKCITQIGETSCGFFKCPLCKTSVRKNAIRF
B2: TRIM37 RING domain (UniProt O94972); chain SVESIAEVFRCFICMEKLRDARLCPHCSKLCCFSCIRRWLTEQRAQCPHCRAPLQLRELVN
B3: DEF8 RING domain (UniProt Q6ZN54); chain AGRLGCSLTEIHTLFAKHIKLDCERCQAKGFVCELCREGDVLFPFDSHTSVCADCSAVFHRDCYYDNSTTCPKCARLSLRK
B4: MYCBP2 RING domain (UniProt O75592); chain TSLKQDADDMCMICFTEALSAAPAIQLDCSHIFHLQCCRRVLENRWLGPRITFGFISCPICKNKINHIVLKD
B5: TRIM54 RING domain (UniProt Q9BYV2); chain SMDNLEKQLICPICLEMFSKPVVILPCQHNLCRKCANDVFQASNPLWQSRGSTTVSSGGRFRCPSCRHEVVLDRHGV
B6: RNF152 RING domain (UniProt Q8N8N0); chain ETLSQDSLLECQICFNYYSPRRRPKLLDCKHTCCSVCLQQMRTSQKDVRCPWCRGVTKLPPGFS
| Sequence | lacZ reporter activity |
| --- | --- |
| B1 (TRIM31 RING domain) | 0 |
| B2 (TRIM37 RING domain) | 0 |
| B3 (DEF8 RING domain) | 0 |
| YCEMGSTFQLCKICAENDKDVKIEPCGHLMCTSCLTAWQESDGQGCPFCRCEIKGTEPII (CBLB RING domain (UniProt Q13191)) | 0 |
| B4 (MYCBP2 RING domain) | 0 |
| PEELAVNNDDCAICWDSMQAARKLPCGHLFHNSCLRSWLEQDTSCPTCRMSLNIADNNR (AMFR RING domain (UniProt Q9UKV5)) | 9210 |
| FVKTVEDKYKCEKCHLVLCSPKQTECGHRFCESCMAALLSSSSPKCTACQESIVKDKVF (TRAF3 RING domain (UniProt Q13114)) | 0 |
| B5 (TRIM54 RING domain) | 0 |
| B6 (RNF152 RING domain) | 0 |
| LDAASGHPLVCPLCHGQYERPCLLDCFHDFCTGCLRGRATDGRLSCPLCQHQTLVKGPSG (Rnf207 RING domain (UniProt Q3V3A7)) | 0 |

Set 2 — observed: peptide-MHC binding; form: peptide; tested at: concentration not given
Target: HLA class I histocompatibility antigen, A alpha chain, allele A*25:01 (Homo sapiens, UniProt P04439)
| Sequence | binding |
| --- | --- |
| LPYPVLLKI | inactive |
| WLYDLWGQL | inactive |
| CLSDEINHV | inactive |
| FTGEYLLRL | inactive |
| EIPDVLNSL | active |
| RNNDPTLPY | inactive |
| SMNYPNSYK | inactive |
| TTYVYTLPV | inactive |
| LEFNSSLAI | inactive |
| RIYKRSLKL | inactive |
| RNMSRIFPY | inactive |
| KQLPPLAAW | inactive |
| NMDKAVKLY | inactive |
| FLRKNQRAL | inactive |
| RPPYSSYGY | inactive |
| AVEDFLAFF | inactive |

Set 3 — target: CCND3, cyclin fold, Cln2 fusion (human); method: yeast growth competition, sequencing; sample: yeast; setting: weak parent motif; relative to: not given; direction: higher = stronger binding
Starting sequence: viral docking peptide; KKAKRRLFTISDS; partner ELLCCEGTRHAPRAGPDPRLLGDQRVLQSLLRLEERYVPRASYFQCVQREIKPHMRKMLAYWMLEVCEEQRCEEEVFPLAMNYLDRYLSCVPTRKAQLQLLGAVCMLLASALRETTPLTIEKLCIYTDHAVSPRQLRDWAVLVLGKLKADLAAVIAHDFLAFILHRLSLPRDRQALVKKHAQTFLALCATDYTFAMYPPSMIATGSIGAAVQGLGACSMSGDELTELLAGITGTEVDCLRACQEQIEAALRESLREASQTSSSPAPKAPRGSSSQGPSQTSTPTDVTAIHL
| Change | normalised enrichment score |
| --- | --- |
| KKAKRRLFTISAS [D12A] | 0.111 |
| KKAKRRLFTISDA [S13A] | 0.168 |
| KKAKRRLFAISDS [T9A] | 0.161 |
| KKAKARLFTISDS [R5A] | 0.194 |
| KKAKKRLLTISDS [R5K F8L] | 0.302 |
| KKAKRRLFTASDS [I10A] | 0.0705 |
| KKAKARAFTISDS [R5A L7A] | -0.0997 |
| KKAKRRLLTISDS [F8L] | 0.664 |
| KAAKRRLFTISDS [K2A] | 0.156 |

Other studies, line by line
B7: cystatin C; sequence looked up; chain SSPGKPPRLVGGPMDASVEEEGVRRALDFAVGEYNKASNDMYHSRALQVVRARKQIVAGVNYFLDVELGRTTCTKTQPNLDNCPFHDQPHLKRKAFCSFQIYAVPWQGTMTLSKSTCQDA
| Sequence | target | observed | tested at | measurement | result |
| --- | --- | --- | --- | --- | --- |
| B7 (cystatin C) | Cathepsin F (Homo sapiens, UniProt Q9UBX1) | enzyme activity | 0.1 µM | inhibition | 20% |

Some of these lines once more (set 2):
| Sequence | binding |
| --- | --- |
| RNNDPTLPY | inactive |
| SMNYPNSYK | inactive |
| AVEDFLAFF | inactive |
| RNMSRIFPY | inactive |
